Measurements collected from several papers.
Numbered parts are unrelated; each lists some results of a single study. Changes are numbered by the printed parent chain.

Study 1
Target: PABPC1L2, full length, GST fusion (mouse, UniProt A0ABA7IW68)
Method: RNAcompete
Form: RNA
Medium: in vitro
Tested at: 20 nM
Notes: 7-mer, probes averaged, single round
Relative to: mean of 7-mers
Reading: higher = stronger binding
Residues (chain): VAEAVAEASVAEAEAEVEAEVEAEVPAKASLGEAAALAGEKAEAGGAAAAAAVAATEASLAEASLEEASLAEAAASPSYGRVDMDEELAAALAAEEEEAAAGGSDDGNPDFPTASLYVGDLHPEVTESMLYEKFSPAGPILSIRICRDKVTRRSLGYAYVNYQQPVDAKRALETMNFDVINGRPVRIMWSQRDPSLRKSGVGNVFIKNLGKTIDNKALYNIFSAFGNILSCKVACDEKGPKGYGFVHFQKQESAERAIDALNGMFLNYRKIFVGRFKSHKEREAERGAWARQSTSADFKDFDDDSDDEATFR
`AAGGAAU` gave a 7-mer Z-score of 0.126.
With `CUUUACA` the 7-mer Z-score was -0.0609.
The 7-mer Z-score of `CCCUCUU` is reported as -0.336.
`AGAGCAG` gave a 7-mer Z-score of -0.0536.
With `AAUGGUC` the 7-mer Z-score was 0.0515.
`AAAGGGU` has a 7-mer Z-score of 1.1.
With `AUGCCGU` the 7-mer Z-score was -0.347.
`UCCUGGG` has a 7-mer Z-score of -0.117.
The 7-mer Z-score of `AUGUGCG` is reported as 0.109.
`AGUAAGG` has a 7-mer Z-score of 0.104.
`CGCUUAG` gave a 7-mer Z-score of -0.315.
`CUCCCAG` has a 7-mer Z-score of -0.233.
`GACGCGA` has a 7-mer Z-score of -0.00833.
With `UAAUCCA` the 7-mer Z-score was -0.0536.
With `CGCGGCU` the 7-mer Z-score was -0.171.
The 7-mer Z-score of `CUACGAC` is reported as -0.237.
`GAUUAAC` gave a 7-mer Z-score of -0.126.
The 7-mer Z-score of `AACAGAU` is reported as 0.793.
With `AUGGCGA` the 7-mer Z-score was 0.0497.

Study 2
Target: CCNB1, cyclin fold, Cln2 fusion (human)
Method: yeast growth competition, sequencing
Medium: yeast
Notes: strong parent motif
Relative to: not given
Reading: higher = stronger binding
Parent: INSM1 docking peptide (human); PKAIRKLHFEDEV
`PKAPRKLHFEDEV [I4P]`: “normalised enrichment score” 0.568.
`PKAIRKLHFQDEV [E10Q]`: “normalised enrichment score” 1.16.
`PKAIMKLHFEDEV [R5M]`: “normalised enrichment score” 2.28.
`PKAIRKGHFEDEV [L7G]` — result for “normalised enrichment score”: 0.538.
`PKAIRKLHFEDRV [E12R]`: “normalised enrichment score” 0.823.
`PKAIRKLHHEDEV [F9H]`: “normalised enrichment score” 0.207.
`PKAIRKLHFTDEV [E10T]` — result for “normalised enrichment score”: 1.52.
`PKAILKLHFEDEV [R5L]` — result for “normalised enrichment score”: 1.44.
`PKAIRKLHFMDEV [E10M]` — result for “normalised enrichment score”: 1.14.
`PKAIRKLHWEDEV [F9W]`: “normalised enrichment score” 1.03.
For `PKAIRKLVFEDEV [H8V]`, “normalised enrichment score” read 3.42.
`PKAIRKIHFEDEV [L7I]` — result for “normalised enrichment score”: 0.888.
`PKAIRKLHFEEEV [D11E]`: “normalised enrichment score” 2.72.
`PKAIRKLHFEDFV [E12F]` — result for “normalised enrichment score”: 1.1.
`PKHIRKLHFEDEV [A3H]` — result for “normalised enrichment score”: 1.49.
Under “normalised enrichment score”, `PKAIRALHFEDEV [K6A]` is recorded as 1.7.
For `PKAIRPLHFEDEV [K6P]`, “normalised enrichment score” read 0.387.
For `PKAIRELHFEDEV [K6E]`, “normalised enrichment score” read 1.14.
For `PKAIRKLHFCDEV [E10C]`, “normalised enrichment score” read 1.58.
Under “normalised enrichment score”, `PKAIFKLHFEDEV [R5F]` is recorded as 0.458.
For `PKAIAKLHFEDEV [R5A]`, “normalised enrichment score” read 1.02.
`PKAIRKLTFEDEV [H8T]`: “normalised enrichment score” 3.35.

Study 3
Substance: PhoQ, residues 284 288 289 292 302 303 SLANKL
Method: Sort-seq
Measured: YFP reporter
Medium: E. coli
Notes: PhoQ-PhoP variant library
Together with: 10 µM Mg2+
Relative to: high Mg2+ state
Reading: higher = stronger signaling
For PhoP, residues 12 14 15 18 19 TQALL (Escherichia coli, UniProt P23836): fold induction read 17.2.
PhoP, residues 12 14 15 18 19 NYFRM (Escherichia coli, UniProt P23836) — fold induction: 2.09.
The fold induction was 3.59 (PhoP, residues 12 14 15 18 19 QYFSL (Escherichia coli, UniProt P23836)).

Study 4
Target: Fragile X messenger ribonucleoprotein 1, C-terminal low-complexity region (Fmr1, Mus musculus, UniProt P35922)
Method: RNA Bind-n-Seq
Form: RNA
Medium: in vitro
Tested at: 200 nM
Notes: whole 134-nt RNA, ends assumed
Together with: 150 mM KCl
Relative to: input library
Reading: higher = stronger binding
With `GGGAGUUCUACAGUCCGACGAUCUGUGCUACACAUCGUAUGUACCGAAUCGGGAAAAAAAGGGGAAAAAAAGGGGAAAAAAAGGGAAAGUAUUAUGUUACGCCGUUCGGAUCUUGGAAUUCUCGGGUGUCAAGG` the log2 enrichment was -0.156.
For `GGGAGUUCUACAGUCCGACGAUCUUUACCCCUCACUGGAGUCAGAUGAAGACAACCCCAUCUUUAAGUCCCGGUCGAAGAAAAGGAAAGGCUCAGACGACGCUCCCUACAGCCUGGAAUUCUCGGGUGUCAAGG`, the log2 enrichment was -0.0807.
The log2 enrichment of `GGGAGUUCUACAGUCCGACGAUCUUCAUGAGGACCUCCGCCUGCUCUUGGAGACCCACCUGCCGUCCAAAAAGAAGAAAGUACUCUUGGGAGUUGGGGAUCCCAAGAUUGGUGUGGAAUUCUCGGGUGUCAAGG` is reported as -0.215.
`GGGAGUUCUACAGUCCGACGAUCCCUGUGCUACACAUCGUAUGUACCGAAUCGGGGCCCCCCGGCCCCCCGGGGCCCCCCGGGGAAAGUAUUAUGUUACGCCGUUCGGAUCUGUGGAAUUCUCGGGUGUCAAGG` gave a log2 enrichment of -0.544.
With `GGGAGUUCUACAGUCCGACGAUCGAAAUUAUGGAAGUGGAAAUUACAAUGAUUUUGGAAAUUAUAACCAGCAACCUUCUAACUACGGUCCAAUGAAGAGUGGAAACUUUGGUGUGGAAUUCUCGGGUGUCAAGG` the log2 enrichment was -1.34.
The log2 enrichment of `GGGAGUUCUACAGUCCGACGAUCUCAAGUCCUGUGCUACACAUCGUAUGUACCGAAUCGGCCGGGGCCGGGCCGGGGAAAGUAUUAUGUUACGCCGUUCGGAUCUGCACUUCCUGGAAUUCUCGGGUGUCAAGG` is reported as -0.0756.
The log2 enrichment of `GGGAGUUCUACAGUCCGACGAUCAGUCCUGUGCUACACAUCGUAUGUACCGAAUCGGGAAAAAAAGGGUUUGGGAAAGGGAAAGUAUUAUGUUACGCCGUUCGGAUCUGCACUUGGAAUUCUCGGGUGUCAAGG` is reported as -0.0468.
With `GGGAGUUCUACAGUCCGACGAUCAGUCCUGUGCUACACAUCGUAUGUACCGAAUCGGCCCCGGGGCCCCGGGGCCCCGGGAAAGUAUUAUGUUACGCCGUUCGGAUCUGCACUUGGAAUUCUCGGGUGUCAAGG` the log2 enrichment was -0.482.
`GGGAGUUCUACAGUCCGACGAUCUCCUGUGCUACACAUCGUAUGUACCGAAUCGGGAAAAAAGGGGAAAAAAGGAAAAAAGGGAAAGUAUUAUGUUACGCCGUUCGGAUCUGCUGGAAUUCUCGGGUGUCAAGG` gave a log2 enrichment of -0.266.
The log2 enrichment of `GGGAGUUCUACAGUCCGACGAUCCACAGACAACACGCACCCACACAGACACAGAGGGAAGGGGUUGGGAUGGGGACAGGGUGCACAGCAGGGCGGGGUAGGACACCAGCCCCUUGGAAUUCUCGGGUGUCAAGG` is reported as 1.16.
For `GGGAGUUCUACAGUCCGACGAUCCCAGGAAGUAAAAACAAAUGGAAAUGCUUCGGAUAGUGGCAGGGGUGGGGGUUGCUAAGGAAAGGGUGGGAUGGGAGUGGGUAAAGAGUUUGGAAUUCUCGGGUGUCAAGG`, the log2 enrichment was 0.509.
With `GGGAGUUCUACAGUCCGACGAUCUCCUGUGCUACACAUCGUAUGUACCGAAUCGGGAAAAAAGGGAAAAAAGGGAAAAAAGGGAAAGUAUUAUGUUACGCCGUUCGGAUCUGCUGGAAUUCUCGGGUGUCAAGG` the log2 enrichment was -0.317.
For `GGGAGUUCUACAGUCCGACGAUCUCCUGUGCUACACAUCGUAUGUACCGAAUCGGUUUUUUGGUUUUUUGGGGUUUUUUGGGGAAAGUAUUAUGUUACGCCGUUCGGAUCUGCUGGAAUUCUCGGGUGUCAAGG`, the log2 enrichment was -0.308.
For `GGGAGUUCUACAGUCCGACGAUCCUCAAGUCCUGUGCUACACAUCGUAUGUACCGAAUCGGGCCGGCCGGGGCCGGAAAGUAUUAUGUUACGCCGUUCGGAUCUGCACUUCCAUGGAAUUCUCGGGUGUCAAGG`, the log2 enrichment was -0.0914.

Excerpt of the above (study 4):
With `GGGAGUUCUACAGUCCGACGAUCUGUGCUACACAUCGUAUGUACCGAAUCGGGAAAAAAAGGGGAAAAAAAGGGGAAAAAAAGGGAAAGUAUUAUGUUACGCCGUUCGGAUCUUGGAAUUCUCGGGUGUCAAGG` the log2 enrichment was -0.156.
For `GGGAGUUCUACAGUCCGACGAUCUUUACCCCUCACUGGAGUCAGAUGAAGACAACCCCAUCUUUAAGUCCCGGUCGAAGAAAAGGAAAGGCUCAGACGACGCUCCCUACAGCCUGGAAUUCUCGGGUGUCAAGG`, the log2 enrichment was -0.0807.
The log2 enrichment of `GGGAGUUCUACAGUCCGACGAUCUUCAUGAGGACCUCCGCCUGCUCUUGGAGACCCACCUGCCGUCCAAAAAGAAGAAAGUACUCUUGGGAGUUGGGGAUCCCAAGAUUGGUGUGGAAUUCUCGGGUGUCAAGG` is reported as -0.215.
`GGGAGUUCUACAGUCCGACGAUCCCUGUGCUACACAUCGUAUGUACCGAAUCGGGGCCCCCCGGCCCCCCGGGGCCCCCCGGGGAAAGUAUUAUGUUACGCCGUUCGGAUCUGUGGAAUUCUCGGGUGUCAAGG` gave a log2 enrichment of -0.544.
With `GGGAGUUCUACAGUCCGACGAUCGAAAUUAUGGAAGUGGAAAUUACAAUGAUUUUGGAAAUUAUAACCAGCAACCUUCUAACUACGGUCCAAUGAAGAGUGGAAACUUUGGUGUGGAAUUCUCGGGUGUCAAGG` the log2 enrichment was -1.34.
The log2 enrichment of `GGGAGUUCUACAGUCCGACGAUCUCAAGUCCUGUGCUACACAUCGUAUGUACCGAAUCGGCCGGGGCCGGGCCGGGGAAAGUAUUAUGUUACGCCGUUCGGAUCUGCACUUCCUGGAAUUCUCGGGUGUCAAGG` is reported as -0.0756.
The log2 enrichment of `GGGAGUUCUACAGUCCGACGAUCAGUCCUGUGCUACACAUCGUAUGUACCGAAUCGGGAAAAAAAGGGUUUGGGAAAGGGAAAGUAUUAUGUUACGCCGUUCGGAUCUGCACUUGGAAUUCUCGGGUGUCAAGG` is reported as -0.0468.
